Results collected from several papers.
Compare with care: the assays were run in different laboratories.

| SMILES | tested on | assay | test system | conditions | how to read | quantity | result |
| --- | --- | --- | --- | --- | --- | --- | --- |
| OC(CCN1CCCCC1)(c1ccccc1)C1CC2C=CC1C2 (centres unmarked) | – | resting-state EEG | healthy elderly humans | oral, 2 mg, eyes closed, LS mean | baseline: baseline | change in EEG Beta1-power Fz-Cz | -10% |
| CC(C)NCC(O)c1ccc(O)c(O)c1 (centres unmarked) | – | – | ventricular cardiomyocytes, C57BL/6 mouse | dose not given, 0.504 s | – | sarcomere length | 1.51 µm |
| C[C@H](Oc1ccc(Br)cc1-c1ccon1)C(=O)O | – | muscle velocity recovery cycles | human, tibialis anterior muscle | 1200 mg single dose, 3.5 h post-dose, frequency ramp, first response at 15 Hz | – | peak amplitude change | 120% |
| Cc1ccc(F)c(NC(=O)Nc2ccc(-c3cccc4[nH]nc(N)c34)cc2)c1 | NLRP3 inflammasome (mouse) | – | mouse BMDM | 10 µM | – | inhibition | 91.6% |
| NC(=O)c1cnc2[nH]ccc2c1N[C@@H]1[C@@H]2CC3C[C@H]1C[C@@](O)(C3)C2 | – | CD8+ memory T cells, flow cytometry | Caucasian humans, peripheral blood | 200 mg single dose | baseline: baseline | percent change | 0.8% |
| Nc1ccn([C@@H]2O[C@H](COP(=O)(O)OP(=O)(O)O)[C@@H](O)[C@H]2O)c(=O)n1 | – | binding, equilibrium dialysis LC-MS | – | 5 µM, thermostabilized A2AR-BRIL construct | baseline: no-protein control, direction not given | z-scored log2 fold change | -2.07 |
| N#Cc1ccn2c(-c3ccncc3)c(-c3ccc(F)cc3)nc2c1 | – | kinase binding, competitor, MIB/MS competition, refers to: YCK2 | Candida albicans cell lysate | 1 µM | baseline: DMSO | log2 fold change | -2.43 |
| CC(=O)N[C@@H](CCCCN)C(=O)O | – | binding, equilibrium dialysis LC-MS | – | 5 µM, thermostabilized A2AR-BRIL construct | baseline: no-protein control, direction not given | z-scored log2 fold change | 0.14 |
| N#Cc1ccc2c(c1)[C@H]1CCCN(C(=O)c3ccc4[nH]cnc4c3)[C@H]1C2 | – | – | human, Phase II trial | 80 mg once daily, day 28, adjusted mean | baseline: baseline | diastolic blood pressure change | -1.9 mmHg |
| C[C@H]1Oc2cc(cnc2N)-c2c(nn(C)c2C#N)CN(C)C(=O)c2ccc(F)cc21 | NLRP3 inflammasome (mouse) | – | mouse BMDM | 10 µM | – | inhibition | -17.7% |
| NC(=O)C1=CN([C@@H]2O[C@H](COP(=O)(O)OP(=O)(O)OC[C@H]3O[C@@H](n4cnc5c(N)ncnc54)[C@H](O)[C@@H]3O)[C@@H](O)[C@H]2O)C=CC1 | – | binding, equilibrium dialysis LC-MS | – | 5 µM, thermostabilized A2AR-BRIL construct | baseline: no-protein control, direction not given | z-scored log2 fold change | -4.67 |

Excerpt of the above:
| SMILES | tested on | assay | test system | conditions | how to read | quantity | result |
| --- | --- | --- | --- | --- | --- | --- | --- |
| N#Cc1ccc2c(c1)[C@H]1CCCN(C(=O)c3ccc4[nH]cnc4c3)[C@H]1C2 | – | – | human, Phase II trial | 80 mg once daily, day 28, adjusted mean | baseline: baseline | diastolic blood pressure change | -1.9 mmHg |
